# Values quoted from earlier work that unrelated publications cite.
# ± gives the spread as reported.
Molecule,tested on,assay,system,setting,how to read,endpoint,result
cyclopropyl methoxycarbonyl metomidate,,,rat blood,,,metabolic half-life,34.2 s
TFELQGVVPRGVNL (V29F),"Prothrombin (F2, Bos taurus, UniProt P00735)",substrate,peptide,,"baseline: FXIII AP 28-41, wild-type",Km improvement,2.6 fold
darobactin A,Bacteroides fragilis,,ATCC 25285,concentration not given,,growth inhibition,no effect
GSGCCGQGSCCGRWSGMKNIRVLWCGGCC,Escherichia coli,,peptide,,,MIC,> 128 µM
cucurbit[7]uril,,,mice,intravenous,,highest non-toxic dose,200 mg/kg
VTATNAFNCRKERGFCRFGGCPFPLIHIGKCGPA,Staphylococcus aureus,,peptide,,,MIC,> 128 µM
omiganan,Enterococcus faecalis,,KCTC 3511,literature value,,MIC,25 µM
DPDPE,human opioid receptor DOP,binding,,,,Ki,0.5 to 3.98 nM
pegcetacoplan,,,cynomolgus monkey,"subcutaneous, 7, 28, 140 mg/kg/day daily, 28 days",,tolerability,not toxic
melittin,Pseudomonas aeruginosa,,ATCC 27853,literature value,,MIC,12.5 µM
YNCCHPMNNLCKE,streptavidin,,peptide,"bacterial display, OmpX fusion",,dissociation rate constant,0.002 s⁻¹
abciximab,,,"human, platelet-bound",,,half-life,~2 weeks
bevacizumab,,,patients with recurrent glioblastoma,"dose not given, CheckMate-143 trial",,12-month survival rate,42%
epigallocatechin gallate,DYRK1A,enzyme activity,,,,IC50,~300 nM
cathelicidin-BF,Staphylococcus aureus,,,,,MIC,30 µg/mL
AEQNPIYWARYADWLFTTPLLLLDLALLVDADEGT (pHLIP (Halobacterium salinarum)),,"NMR, refers to: Asp25","peptide, lipid membrane",numbering of the source,,pKa,6.1
FFFHIIHHIFHLIRRLLHRIRRRRRRHR,Pseudomonas aeruginosa,,peptide,,,MIC,32 µM
VVIA,"PC-12, differentiated",MTT,peptide,"10-fold excess over Aβ42, with: Aβ42 5 µM",baseline: untreated,viability,89 ± 5%
enfortumab vedotin,,,mouse ICR SCID,,,half-life,37 h
human CCL11,CCR3 E25A mutant,,,,,IC50,11.9 nM
GTVLCCETCFLLSCCKIGCTCTRVV,Pseudomonas aeruginosa,,peptide,,,MIC,32 µM
evodiamine,butyrylcholinesterase,inhibitor,,,,IC50,4620 nM
buforin II,Bacillus subtilis,,KCTC 3068,literature value,,MIC,50 µM
YCAQTGCTVNWGRCWGCIGNNSGANYATGGKSGV,Staphylococcus aureus,,peptide,,,MIC,> 128 µM
